Assay results of several laboratories.
Lines come from different studies, so protocols differ.
Target: SNF-related serine/threonine-protein kinase (SNRK, Homo sapiens, UniProt Q9NRH2)

SMILES	assay	system	setting	how to read	quantity	value
CCN1CCN(Cc2ccc(C(=O)Nc3ccc(C)c(NCc4cnc5[nH]ccc5c4OC)c3)cc2C(F)(F)F)CC1	binding, competition with immobilised ligand	–	1 µM	–	remaining binding	43%
Cc1ccc(-c2c(/C=C(\C#N)C(=O)NC(C)C)n(CCCO)c3ncnc(N)c23)cc1	cell-free assay, competition with immobilised ligand	–	1 µM	–	remaining binding	79%
COc1c(Cl)cccc1Nc1c(-c2ccncc2C#C[C@@]2(C)CCCN2C(=O)/C=C/CN(C)C)[nH]c2c1C(=O)NCC2	binding, competition with immobilised ligand	–	3 µM	–	remaining binding	100%
CCn1cc(C(=O)O)c(=O)c2c(N)c(F)c(NC3CCCCC3)cc21	kinase activity	–	0.1 µM, together with: ATP at Km	–	inhibition	-3.2%
CNC(=O)C1CCN(c2cc(C)c(F)cc2NC(=O)c2ccc(-c3cc(O)ccc3C)c(C)c2)CC1	binding, competition with immobilised ligand	–	1 µM	–	remaining binding	100%
C=CC(=O)N1CCCC(n2c(=O)c3ncccc3n(Cc3ccc(Oc4ccccc4)cc3)c2=O)C1 (centres unmarked)	cell-free assay, competition with immobilised ligand	–	1 µM	–	remaining binding	89%
O=C(Cc1ccc(OCc2ccccc2)cc1)NC1(C(=O)O)CCN(C(=O)c2ccc(-c3cccc(Cl)c3)cc2)CC1	enzyme activity, inhibitor	–	10 µM	–	activity vs control	120%
CC(C)=CC1OC(C)(C)C2C=C3C(=O)C(Cl)=CC(O)C3C3C(O)C4OC4C(=O)C132 (centres unmarked)	cell-free assay, competition with immobilised ligand	–	10 µM	–	remaining binding	90%
Cc1ccc(C(=O)Nc2ccc(CN3CCN(C)CC3)c(C(F)(F)F)c2)cc1C#Cc1cnc2cccnn12	target engagement, NanoBRET	human cells	–	–	upper asymptote	34.3
Nc1ncc2c(n1)-c1c([nH]c3ccc(C4=CCOCC4)cc13)CCC2	binding, competition with immobilised ligand	–	1 µM	–	remaining binding	100%
Cc1cnc2nc1Nc1cccc(c1)COC/C=C/COCc1cc(ccc1OCCN1CCOCC1)N2	binding, competition with immobilised ligand	–	0.1 µM	–	remaining binding	100%
C=CC(=O)N1CCc2ccc(-n3c(=O)ccc4cnc5ccc(-c6cnn(C)c6)cc5c43)cc21	KINOMEscan	–	1 µM	baseline: DMSO control	remaining binding	100%
COc1cc(Nc2nccc(-c3cnn4nc(OC)ccc34)n2)cc(C(F)(F)F)c1	binding, competition with immobilised ligand	–	1 µM	–	remaining binding	89%
CNC1C[S+]2CC[S+]3CC[S+](C1)[Ru-4]321([N]=C=S)[n]2c3ccc(OC)cc3c3c4c(c5cc(F)c[n+]1c5c32)C(=O)NC4=O (centres unmarked)	KinomeScan	–	0.1 µM	baseline: untreated	remaining binding	96%
COc1cc(Nc2nc(C)cc(-c3cnn4nc(OC)ccc34)n2)cc(C(F)(F)F)c1	binding, competition with immobilised ligand	–	1 µM	–	remaining binding	100%
CS(=O)(=O)Nc1cccc(-c2csc3cnc(Nc4ccc(N5CCN(CCCCCOc6cccc7c6C(=O)N(C6CCC(=O)NC6=O)C7=O)CC5)cc4)nc23)c1 (centres unmarked)	probe labelling, inhibitor, KiNativ chemoproteomics	MOLT-4	1 µM	–	inhibition	-39.2%
Cc1nc2c(F)cc(-c3nc(Nc4ccc(CNC(=O)CCCCCCC(=O)NO)cc4)ncc3F)cc2n1C(C)C	enzyme activity, inhibitor	–	1 µM	–	inhibition	0%
CNC(=O)C[C@H](Cc1ccc(C#N)cc1)NC(=O)c1cc(-c2ccc(CN[C@H](C)c3ccc(C)cc3)o2)ccc1Cl	enzyme activity, inhibitor	–	1 µM	–	activity vs control	121%
CN1CC[C@@H](COc2cnc(C#N)cc2-c2ccn3nc(NC(=O)C4CC4)cc3c2)C1	enzyme activity, inhibitor	–	1 µM	–	inhibition	9%
Nc1ncc(-c2cc(-c3cnn(CC(F)(F)F)c3)ncc2F)nc1C(=O)NC1CNCC(F)C1 (centres unmarked)	enzyme activity	–	1 µM	baseline: DMSO control	remaining activity	96.5%

A few entries again:
SMILES	assay	system	setting	how to read	quantity	value
COc1c(Cl)cccc1Nc1c(-c2ccncc2C#C[C@@]2(C)CCCN2C(=O)/C=C/CN(C)C)[nH]c2c1C(=O)NCC2	binding, competition with immobilised ligand	–	3 µM	–	remaining binding	100%
O=C(Cc1ccc(OCc2ccccc2)cc1)NC1(C(=O)O)CCN(C(=O)c2ccc(-c3cccc(Cl)c3)cc2)CC1	enzyme activity, inhibitor	–	10 µM	–	activity vs control	120%
CC(C)=CC1OC(C)(C)C2C=C3C(=O)C(Cl)=CC(O)C3C3C(O)C4OC4C(=O)C132 (centres unmarked)	cell-free assay, competition with immobilised ligand	–	10 µM	–	remaining binding	90%
